Experimental data collected from several papers.
Parts stem from different laboratories: compare values within a part only.

Series 1
Cell line: HEK-293T
Effect on: pseudovirus infection
Technique: FDA-approved drug library screen
Organism: VSV pseudotyped with SARS-CoV-2 spike
Concentration: 10 µM
Time: 16 h
Reference: vehicle-treated
Quantity: GFP-positive cells
CC[C@@H](C(N)=O)N1CCCC1=O: 80.9%
Nc1ncnc2c1ncn2[C@@H]1O[C@H](CO)[C@@H](O)[C@H]1O: 72.2%
CN(C)CCN(Cc1ccccc1)c1ccccn1: 80.8%

Series 2
Target: Sal-like protein 4, full length isoform B (SALL4, Homo sapiens, UniProt Q9UJQ4-2, residues 1-616)
Technique: universal PBM
Molecule type: double-stranded DNA, one strand shown
Matrix: in vitro
Concentration: not given
Setting: 8-mer, flanks averaged, mean of replicates
Direction: higher = stronger binding
Quantity: E-score
Target sequence (chain): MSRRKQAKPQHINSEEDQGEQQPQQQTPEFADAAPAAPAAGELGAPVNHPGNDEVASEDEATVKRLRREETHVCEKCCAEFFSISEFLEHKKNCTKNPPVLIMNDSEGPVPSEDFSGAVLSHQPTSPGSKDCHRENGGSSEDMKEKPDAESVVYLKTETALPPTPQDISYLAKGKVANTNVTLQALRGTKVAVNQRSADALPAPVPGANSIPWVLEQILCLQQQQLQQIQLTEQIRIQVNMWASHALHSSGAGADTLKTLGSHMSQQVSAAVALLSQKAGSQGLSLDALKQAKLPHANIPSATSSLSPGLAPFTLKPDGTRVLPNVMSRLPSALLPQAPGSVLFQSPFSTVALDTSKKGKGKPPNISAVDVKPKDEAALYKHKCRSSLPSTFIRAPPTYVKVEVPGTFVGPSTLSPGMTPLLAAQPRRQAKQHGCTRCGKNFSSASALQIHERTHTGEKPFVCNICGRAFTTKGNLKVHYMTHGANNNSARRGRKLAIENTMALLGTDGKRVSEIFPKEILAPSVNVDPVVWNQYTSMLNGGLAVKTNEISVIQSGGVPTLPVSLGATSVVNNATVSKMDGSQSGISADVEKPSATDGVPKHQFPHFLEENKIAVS
AAAGAGAG: -0.0635
CGGTTAGC: -0.195
AATAATGC: 0.324
GCTCGGGA: -0.311
GAAATCCA: 0.124
ACCAGACC: -0.252
ATCTCAAT: 0.201
AGCACCGG: -0.283

Series 3
Target: RNA binding protein fox-1 homolog 2, RRM domain, GST-SBP tag (RBFOX2, Homo sapiens, UniProt O43251-10, residues 100-194)
Technique: RNA Bind-n-Seq
Molecule type: RNA
Matrix: in vitro
Concentration: 365 nM
Setting: natural RNA segment, single round, ends assumed
Reference: no-protein control
Direction: higher = stronger binding
Quantity: RBNS enrichment (R)
Construct (chain): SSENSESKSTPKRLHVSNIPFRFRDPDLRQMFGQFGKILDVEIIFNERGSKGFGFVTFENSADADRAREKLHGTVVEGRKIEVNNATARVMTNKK
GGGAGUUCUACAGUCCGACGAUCUAAGGAGUCCCAGCCCUUUCUCUGAUGCCACCACCUGAACCCUGCUCCCUCGUGGGCCAGUGAAAAUAGACUGUAGGUCCUCAGAGCCUUCAGAGAUGAUCCAGCCCAAAUGGAAUUCUCGGGUGCCAA: 0.337
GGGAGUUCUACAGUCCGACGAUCCCCUUUGUCUUGUAGUUGCAUCACGUAGAGCAGCAGGGCUUCUAUAGAUAGGCCCAGUGUCUUGGCAUUCUUGUAGAAUCUUCAGGUGGGAAUGUGUGAUGCCUUUUCAGUGGAAUUCUCGGGUGCCAA: 2.73
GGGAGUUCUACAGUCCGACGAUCAGUAUUAAAAAUUGGGUCUAUGACAUAUUGUCCAAAAGGAAUGCUGUUCUUAAAGCAUUAUUUACAGUAGGAACUGGGGAGUAAAUCUGUUCCCUACAGUUUGCUGCUGAUGGAAUUCUCGGGUGCCAA: 0.389
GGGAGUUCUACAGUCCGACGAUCCAGGGGUUGAGACAGGCUUGGGUAAACAUUGUCACCCAAGCUUCAGCUCCUCCGGUUAUUUCCUUGCCACUGCCUGCCCGAGCCACUUCAAGCCUUAGGAACUGGCAGACUGGAAUUCUCGGGUGCCAA: 0.702
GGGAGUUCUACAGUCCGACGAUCGGUAAAAAUGAGACUCAAGAGGCAUCACUGGCCAUUGUACCAGAUUAUUCCUGCUCGCCAGUGAGAGGCGUUUAAGUCGCGCUGUGCAUCGUACCUUCAGUUUAGGCUGUUGGAAUUCUCGGGUGCCAA: 1
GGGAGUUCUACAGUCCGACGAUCGACCCACCCAACGUCUCCAGUUCUUAUUGUUCUCCUUCCUUCCUUCUUUCCUUUCCCUUCUCACCUCUUUGCCUCCUUCCCUAAAAUUCGCUGUGGCCCUCGGGGUCAGAUGGAAUUCUCGGGUGCCAA: 1.47
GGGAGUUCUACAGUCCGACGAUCGACUAGGCUGAGGCUAGUGCUGGUGUGGACUCGUUGCCCACUGUCUUCCUGUUUAUGAUUAACUCUGGAUACCUGGGCAGGUGGGGCAGAGUGGGCAGGGAAGUGGCUUCUGGAAUUCUCGGGUGCCAA: 5.37
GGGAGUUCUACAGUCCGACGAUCCAACUUUGGAAAAUAUACAUGAUGUGAAACUGGGGUGCUAUGUUAAAAAUAAAUGUAUGAUAACUAAGUGUGGGUUUUAUGGAGUCUUGGUGUCGAUAUAUUGUGGUUUGUGGAAUUCUCGGGUGCCAA: 0.744

Series 4
Target: Replicase polyprotein 1ab, main protease (rep, Severe acute respiratory syndrome coronavirus 2, UniProt P0DTD1)
Effect on: enzyme activity
Action: inhibitor
Concentration: 20 µM
Setting: hit confirmation, with DTT
Quantity: inhibition
COc1cc(C[C@@H]2NCCc3cc(O)c(O)cc32)cc(OC)c1OC: -5.6%
CC(C)(C)c1ccc(S(=O)(=O)/C=C/C#N)cc1: -7.9%
CCc1ccc(/C=C/C(=O)Nc2ccc(C(C)=O)cc2)o1: -30.5%

Series 5
Target: Replicase polyprotein 1ab, nsp13 helicase (rep, Severe acute respiratory syndrome coronavirus 2, UniProt P0DTD1)
Action: inhibitor
Concentration: 20 µM
Quantity: inhibition
CC(=O)O[C@]1(C(C)=O)CC[C@H]2[C@@H]3C=C(Cl)C4=CC(=O)CC[C@]4(C)[C@H]3CC[C@@]21C: 1.71%
CCc1cc2c(cc1N1CCC(N3CCOCC3)CC1)C(C)(C)c1[nH]c3cc(C#N)ccc3c1C2=O: 7.31%
O=C(O)C(Cc1c[nH]c2ccccc12)N1C(=O)c2ccccc2C1=O (centres unmarked): -0.57%
CC(=O)Oc1ccc(C(c2ccc(OC(C)=O)cc2)c2ccccn2)cc1: 2.89%
Cn1ncc(Cl)c1-c1cc(C(=O)N[C@H](CN)Cc2ccc(F)c(F)c2)oc1Cl: 6.86%
COc1cc(NC(=O)c2ccc(-c3ccc(Cl)cc3)o2)cc(OC)c1: 4.12%
COc1ccc(Cl)c(Nc2ncnc3cc(OCC4CCN(C)CC4)c(OC)cc23)c1: 0.65%
Cc1cc(C)c(S(=O)(=O)n2cc(C)cc2C)c(C)c1: -2.51%
N#CN=C(NCCCCCCOc1ccc(Cl)cc1)Nc1ccncc1: 3.03%
COc1cc(Nc2c(C#N)cnc3cc(OCCCN4CCN(C)CC4)c(OC)cc23)c(Cl)cc1Cl: 17.2%
Nc1ncnc2c1c(COc1cccc(Cl)c1)nn2C1CCOCC1: 9.95%
Cc1c(C(=O)NN2CCCCC2)nn(-c2ccc(Cl)cc2Cl)c1-c1ccc(Cl)cc1: 5.87%
CCCC[C@H](NC(C)=O)C(=O)N[C@H]1CC(=O)NCCCC[C@@H](C(=O)O)NC(=O)[C@H](Cc2c[nH]c3ccccc23)NC(=O)[C@H](CCCNC(=N)N)NC(=O)[C@@H](Cc2ccccc2)NC(=O)[C@H](Cc2c[nH]cn2)NC1=O: 4.2%
O=C(Nc1ccccc1-c1cn2c(CN3CCNCC3)csc2n1)c1cnc2ccccc2n1: 71.7%
Cc1ccc(NC(=O)C2(c3ccc4c(c3)OC(F)(F)O4)CC2)nc1-c1cccc(C(=O)O)c1: -1.31%
C=C1CC[C@H](O)C/C1=C/C=C1\CCC[C@]2(C)[C@@H]([C@H](C)CCCC(C)(C)O)CC[C@@H]12: 13.1%

For quick reference, copied from above (series 5):
Cn1ncc(Cl)c1-c1cc(C(=O)N[C@H](CN)Cc2ccc(F)c(F)c2)oc1Cl: 6.86%
Nc1ncnc2c1c(COc1cccc(Cl)c1)nn2C1CCOCC1: 9.95%
Cc1c(C(=O)NN2CCCCC2)nn(-c2ccc(Cl)cc2Cl)c1-c1ccc(Cl)cc1: 5.87%
O=C(Nc1ccccc1-c1cn2c(CN3CCNCC3)csc2n1)c1cnc2ccccc2n1: 71.7%
Cc1ccc(NC(=O)C2(c3ccc4c(c3)OC(F)(F)O4)CC2)nc1-c1cccc(C(=O)O)c1: -1.31%
